Assay results from different studies.
A part holds a random share of what one study measured. Several values in a cell are separate wells, animals, samples, runs or records.
UniProt P28223, sequence (whole entry, looked up): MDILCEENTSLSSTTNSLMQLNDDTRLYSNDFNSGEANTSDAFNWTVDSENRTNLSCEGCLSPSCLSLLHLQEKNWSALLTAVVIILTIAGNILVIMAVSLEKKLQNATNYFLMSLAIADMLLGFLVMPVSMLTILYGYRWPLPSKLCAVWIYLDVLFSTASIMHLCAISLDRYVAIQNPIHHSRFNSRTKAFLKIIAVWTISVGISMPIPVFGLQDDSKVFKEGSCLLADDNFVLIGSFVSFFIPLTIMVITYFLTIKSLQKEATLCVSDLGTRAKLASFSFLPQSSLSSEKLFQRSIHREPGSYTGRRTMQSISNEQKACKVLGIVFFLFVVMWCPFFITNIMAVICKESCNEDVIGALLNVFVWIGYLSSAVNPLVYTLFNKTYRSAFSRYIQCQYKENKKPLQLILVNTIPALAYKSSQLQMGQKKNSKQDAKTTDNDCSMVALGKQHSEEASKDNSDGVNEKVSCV
UniProt P62344, sequence (whole entry, looked up): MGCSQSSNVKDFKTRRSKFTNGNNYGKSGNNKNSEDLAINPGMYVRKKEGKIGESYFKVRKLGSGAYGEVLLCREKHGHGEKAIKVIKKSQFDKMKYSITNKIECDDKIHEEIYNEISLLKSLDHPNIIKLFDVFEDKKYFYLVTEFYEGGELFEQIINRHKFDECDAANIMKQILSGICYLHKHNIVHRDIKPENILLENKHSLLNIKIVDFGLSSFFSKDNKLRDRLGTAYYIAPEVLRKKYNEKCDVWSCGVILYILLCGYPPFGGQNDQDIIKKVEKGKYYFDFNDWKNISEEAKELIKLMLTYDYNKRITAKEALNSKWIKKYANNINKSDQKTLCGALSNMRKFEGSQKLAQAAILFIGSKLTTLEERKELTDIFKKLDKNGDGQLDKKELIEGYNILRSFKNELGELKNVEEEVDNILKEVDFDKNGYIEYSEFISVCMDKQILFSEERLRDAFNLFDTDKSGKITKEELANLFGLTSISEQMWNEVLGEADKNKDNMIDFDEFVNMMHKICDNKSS
UniProt P48730, sequence (whole entry, looked up): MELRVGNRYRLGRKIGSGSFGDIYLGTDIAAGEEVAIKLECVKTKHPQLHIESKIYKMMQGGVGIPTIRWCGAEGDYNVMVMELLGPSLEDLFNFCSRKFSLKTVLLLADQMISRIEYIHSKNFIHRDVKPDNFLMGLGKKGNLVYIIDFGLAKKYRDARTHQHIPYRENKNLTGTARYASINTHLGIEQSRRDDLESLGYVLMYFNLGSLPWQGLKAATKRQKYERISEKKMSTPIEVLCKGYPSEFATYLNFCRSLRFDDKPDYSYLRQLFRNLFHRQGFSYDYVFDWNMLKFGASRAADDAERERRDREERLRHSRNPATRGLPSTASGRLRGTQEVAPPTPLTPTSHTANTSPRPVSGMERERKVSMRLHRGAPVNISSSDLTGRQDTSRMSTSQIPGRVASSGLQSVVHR
UniProt Q06418, sequence (whole entry, looked up): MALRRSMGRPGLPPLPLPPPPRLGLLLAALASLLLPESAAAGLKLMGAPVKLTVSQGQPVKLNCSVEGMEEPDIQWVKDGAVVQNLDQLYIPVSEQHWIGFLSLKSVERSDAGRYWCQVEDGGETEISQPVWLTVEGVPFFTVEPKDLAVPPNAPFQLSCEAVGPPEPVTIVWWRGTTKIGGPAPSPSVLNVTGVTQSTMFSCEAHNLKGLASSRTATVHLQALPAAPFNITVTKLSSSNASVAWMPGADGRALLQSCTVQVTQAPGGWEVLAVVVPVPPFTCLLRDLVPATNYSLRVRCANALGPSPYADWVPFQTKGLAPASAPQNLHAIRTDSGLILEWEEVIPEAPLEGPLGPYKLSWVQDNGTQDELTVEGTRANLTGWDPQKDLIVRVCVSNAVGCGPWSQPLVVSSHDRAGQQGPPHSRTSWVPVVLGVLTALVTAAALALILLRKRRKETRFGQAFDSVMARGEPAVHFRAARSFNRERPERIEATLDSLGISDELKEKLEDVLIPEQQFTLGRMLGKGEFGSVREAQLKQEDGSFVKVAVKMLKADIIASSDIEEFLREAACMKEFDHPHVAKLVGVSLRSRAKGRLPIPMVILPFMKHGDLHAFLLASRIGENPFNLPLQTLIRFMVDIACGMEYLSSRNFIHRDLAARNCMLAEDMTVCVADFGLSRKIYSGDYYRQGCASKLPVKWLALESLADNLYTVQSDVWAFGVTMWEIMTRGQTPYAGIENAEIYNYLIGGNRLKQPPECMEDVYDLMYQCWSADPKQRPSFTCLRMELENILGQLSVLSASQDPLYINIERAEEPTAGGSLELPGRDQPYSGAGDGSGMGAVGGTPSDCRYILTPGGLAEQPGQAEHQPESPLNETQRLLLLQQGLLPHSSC
UniProt Q13153, sequence (whole entry, looked up): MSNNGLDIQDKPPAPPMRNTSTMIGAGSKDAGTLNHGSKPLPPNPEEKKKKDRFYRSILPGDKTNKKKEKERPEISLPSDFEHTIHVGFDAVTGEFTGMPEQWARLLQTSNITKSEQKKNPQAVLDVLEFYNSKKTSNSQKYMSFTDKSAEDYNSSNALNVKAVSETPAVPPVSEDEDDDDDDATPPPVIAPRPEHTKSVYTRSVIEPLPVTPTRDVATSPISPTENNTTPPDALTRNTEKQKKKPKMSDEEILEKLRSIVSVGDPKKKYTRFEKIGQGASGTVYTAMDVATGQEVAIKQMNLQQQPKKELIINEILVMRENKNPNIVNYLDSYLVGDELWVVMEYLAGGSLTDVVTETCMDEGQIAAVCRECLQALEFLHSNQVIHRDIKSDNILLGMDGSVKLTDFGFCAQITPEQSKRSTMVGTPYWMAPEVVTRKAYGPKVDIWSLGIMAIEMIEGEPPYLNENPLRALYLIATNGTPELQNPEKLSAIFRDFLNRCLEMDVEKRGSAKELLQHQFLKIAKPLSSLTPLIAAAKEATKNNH
UniProt O15146, sequence (whole entry, looked up): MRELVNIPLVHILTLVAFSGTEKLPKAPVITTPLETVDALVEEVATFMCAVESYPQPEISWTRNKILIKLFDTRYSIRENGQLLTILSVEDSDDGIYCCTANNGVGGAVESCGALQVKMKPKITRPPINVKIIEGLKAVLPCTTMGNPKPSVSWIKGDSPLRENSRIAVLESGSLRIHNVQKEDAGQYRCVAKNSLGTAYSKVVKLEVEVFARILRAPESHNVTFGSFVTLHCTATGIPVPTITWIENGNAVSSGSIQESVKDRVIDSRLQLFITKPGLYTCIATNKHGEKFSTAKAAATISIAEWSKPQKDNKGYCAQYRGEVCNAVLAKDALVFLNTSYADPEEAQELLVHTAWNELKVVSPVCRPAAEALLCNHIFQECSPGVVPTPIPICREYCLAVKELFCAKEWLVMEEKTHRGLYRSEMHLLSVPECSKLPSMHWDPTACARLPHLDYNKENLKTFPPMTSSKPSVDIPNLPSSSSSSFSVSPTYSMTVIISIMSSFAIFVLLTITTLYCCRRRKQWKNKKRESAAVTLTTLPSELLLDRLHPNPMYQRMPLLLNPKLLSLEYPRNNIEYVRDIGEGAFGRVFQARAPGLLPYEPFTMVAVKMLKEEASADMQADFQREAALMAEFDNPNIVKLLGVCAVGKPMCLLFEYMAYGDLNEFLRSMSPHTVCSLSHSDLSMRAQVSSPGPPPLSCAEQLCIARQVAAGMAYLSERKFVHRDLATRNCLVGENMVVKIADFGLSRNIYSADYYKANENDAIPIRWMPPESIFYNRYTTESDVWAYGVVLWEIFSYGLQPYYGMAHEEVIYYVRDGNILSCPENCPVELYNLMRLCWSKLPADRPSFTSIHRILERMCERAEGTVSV

Block 1
SMILES: CCn1cnc2c(Nc3cccc(Cl)c3)nc(N[C@H]3CCCC[C@H]3N)nc21
Read-out: enzyme activity
Mode: inhibitor
Concentration: 0.5 µM
Reference: control
Measurement: remaining activity
target = PRKCQ (Homo sapiens, UniProt Q04759); value = 93.3%
target = CLK2 (Homo sapiens, UniProt P49760); value = 26.6%
target = Cyclin-dependent kinase 2, with cyclin E (CDK2, Homo sapiens, UniProt P24941); value = 16.8%
target = PRKCZ (Homo sapiens, UniProt Q05513); value = 106%
target = TEC (Homo sapiens, UniProt P42680); value = 123%
target = SRPK1 (Homo sapiens, UniProt Q96SB4); value = 94.2%
target = SGK2 (Homo sapiens, UniProt Q9HBY8); value = 98.2%
target = CSNK1D (Homo sapiens, UniProt P48730); value = 97.8%
target = EPHA2 (Homo sapiens, UniProt P29317); value = 86.7%
target = TYRO3 (Homo sapiens, UniProt Q06418); value = 98.3%
target = RPS6KA3 (Homo sapiens, UniProt P51812); value = 64.1%
target = CSNK1E (Homo sapiens, UniProt P49674); value = 92.1%
target = PAK6 (Homo sapiens, UniProt Q9NQU5); value = 96.7%
target = MUSK (Homo sapiens, UniProt O15146); value = 79.8%
target = SIK2 (Homo sapiens, UniProt Q9H0K1); value = 89.1%
target = IGF1R (Homo sapiens, UniProt P08069); value = 51.8%
target = MAP3K20 (Homo sapiens, UniProt Q9NYL2); value = 104%
target = FLT1 (Homo sapiens, UniProt P17948); value = 92.8%
target = PAK1 (Homo sapiens, UniProt Q13153); value = 88.8%
target = CAMK1 (Homo sapiens, UniProt Q14012); value = 103%
target = JAK1 (Homo sapiens, UniProt P23458); value = 98.6%
target = CAMKK1 (Homo sapiens, UniProt Q8N5S9); value = 107%

Block 2
Target: Calcium/calmodulin-dependent protein kinase type II subunit alpha (CAMK2A, Homo sapiens, UniProt Q9UQM7)
UniProt Q9UQM7, sequence (whole entry, looked up): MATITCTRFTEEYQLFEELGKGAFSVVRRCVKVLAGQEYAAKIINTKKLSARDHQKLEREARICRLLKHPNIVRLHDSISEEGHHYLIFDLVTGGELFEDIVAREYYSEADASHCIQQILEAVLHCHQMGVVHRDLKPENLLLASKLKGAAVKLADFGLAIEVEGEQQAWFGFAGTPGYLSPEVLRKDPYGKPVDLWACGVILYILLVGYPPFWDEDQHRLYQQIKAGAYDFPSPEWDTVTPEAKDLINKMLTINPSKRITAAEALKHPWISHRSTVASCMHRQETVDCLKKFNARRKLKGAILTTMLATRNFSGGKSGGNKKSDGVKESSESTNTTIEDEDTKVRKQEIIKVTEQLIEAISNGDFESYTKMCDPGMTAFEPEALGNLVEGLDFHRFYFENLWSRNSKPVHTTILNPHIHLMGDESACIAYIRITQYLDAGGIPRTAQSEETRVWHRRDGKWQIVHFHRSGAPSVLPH
Read-out: enzyme activity
Mode: inhibitor
Concentration: 10 µM
Measurement: inhibition
SMILES = CC(C)C(Br)C(=O)NC(N)=O (centres unmarked); value = -2%
SMILES = COC1=CC(=O)O[C@@H](/C=C/c2ccccc2)C1; value = 1%
SMILES = O=C(/C=C/c1ccccc1)OC[C@H]1O[C@@H](O[C@@H]2OC=C[C@H]3[C@H](O)[C@@H]4O[C@]4(CO)[C@@H]23)[C@H](O)[C@@H](O)[C@@H]1O; value = -34%
SMILES = CC1=C(C(=O)Nc2ccccc2)SCCO1; value = 2%

Block 3
Organism: Sarcocystis neurona
Read-out: parasite growth
Concentration: 10 µM
Time: 96 h
Setting: second screen
Reference: untreated
Measurement: log2 fold change
Structure (SMILES) = CNC1CC(c2ccc(Cl)c(Cl)c2)c2ccccc21 (centres unmarked); value = 0.14
Structure (SMILES) = COc1ccc(C(CN(C)C)C2(O)CCCCC2)cc1 (centres unmarked); value = 0.32
Structure (SMILES) = CNCC(O)c1ccc(O)cc1 (centres unmarked); value = 0.23
Structure (SMILES) = Cc1nnc2n1-c1ccc(Cl)cc1C(c1ccccc1)=NC2; value = 0.14
Structure (SMILES) = NC(=O)C[S+]([O-])C(c1ccccc1)c1ccccc1 (centres unmarked); value = 0.15
Structure (SMILES) = C[C@]12C/C(=C/O)C(=O)C[C@@H]1CC[C@@H]1[C@@H]2CC[C@@]2(C)[C@H]1CC[C@]2(C)O; value = 0.27
Structure (SMILES) = CN1C(=O)CN=C(c2ccccc2)c2cc([N+](=O)[O-])ccc21; value = 0.21

Block 4
Cell line: A-375
Concentration: 100 µM
Time: 36 h
Measurement: viability
SMILES = NCC(O)c1ccc(O)cc1 (centres unmarked); value = 123%
SMILES = OC(O)C(Cl)(Cl)Cl; value = 119%
SMILES = Nc1nc(N)nc(NC2CC2)n1; value = 103%
SMILES = CCC1=C[C@@H]2CN3CCc4c([nH]c5ccccc45)[C@@](C(=O)OC)(C2)[C@@H]13; value = 96.8%

Mixed results
pknB: Serine/threonine-protein kinase PknB (pknB, Mycobacterium tuberculosis, UniProt P9WI81)
UniProt P9WI81, sequence (whole entry, looked up): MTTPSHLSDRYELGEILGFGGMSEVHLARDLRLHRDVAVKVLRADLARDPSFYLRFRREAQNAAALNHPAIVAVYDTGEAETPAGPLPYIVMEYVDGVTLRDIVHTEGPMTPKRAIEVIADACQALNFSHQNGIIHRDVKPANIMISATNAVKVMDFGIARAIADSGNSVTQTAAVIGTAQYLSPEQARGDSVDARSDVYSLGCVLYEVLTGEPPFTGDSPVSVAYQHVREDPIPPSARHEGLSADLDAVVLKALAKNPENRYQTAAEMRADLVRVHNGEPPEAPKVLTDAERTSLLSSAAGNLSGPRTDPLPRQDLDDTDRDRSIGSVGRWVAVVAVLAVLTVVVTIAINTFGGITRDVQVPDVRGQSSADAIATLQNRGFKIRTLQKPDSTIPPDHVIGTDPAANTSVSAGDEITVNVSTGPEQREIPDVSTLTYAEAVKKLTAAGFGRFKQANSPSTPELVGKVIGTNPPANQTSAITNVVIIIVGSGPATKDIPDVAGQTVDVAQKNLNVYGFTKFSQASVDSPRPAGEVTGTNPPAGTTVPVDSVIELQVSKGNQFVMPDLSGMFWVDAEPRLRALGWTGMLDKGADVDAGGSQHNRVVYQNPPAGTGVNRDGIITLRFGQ
Structure (SMILES) = N#Cc1ccc(Nc2ccc3[nH]c(=O)[nH]c3c2)c(Cl)c1; tested on = CDPK1 (Plasmodium falciparum, UniProt P62344); test = cell-free assay, competition with immobilised ligand; conditions = 1 µM; measurement = remaining binding; value = 99%
Structure (SMILES) = CN[C@@H]1C[C@H]2O[C@@](C)([C@@H]1OC)n1c3ccccc3c3c4c(c5c6ccccc6n2c5c31)C(=O)NC4; tested on = human CD34+ HSPC; test = EdU flow cytometry; conditions = 100 nM, 24 h; measurement = G0-G1 phase cells; value = 31.9% and 26.6%
Structure (SMILES) = CN(C)[C@@H]1CCN(c2cc(-c3ccccc3)nc3ccnn23)C1; tested on = HTR2A (Homo sapiens, UniProt P28223); test = cell-free assay; conditions = 10 µM; measurement = inhibition; value = 16.3%
Structure (SMILES) = COc1cccc(C2(O)CCCCC2CN(C)C)c1 (centres unmarked); tested on = mouse MPNST tumor cells; test = high-content nuclear imaging, item: cell number; conditions = 10 µM, 12 h, mean of 2 replicates; how to read = reference: plate mean, higher = more cells; measurement = nuclei count; value = 0.703 z-score
Structure (SMILES) = CCc1ccccc1C(=O)Nc1n[nH]c2c(C)c(F)c(C3C(C#N)=C(C)N(C)C(C)=C3C#N)cc12; tested on = pknB; test = cell-free assay, competition with immobilised ligand; conditions = 1 µM; measurement = remaining binding; value = 85%
Structure (SMILES) = CCc1cccc(CC)c1NC1=NCCN1; tested on = mouse MPNST tumor cells; test = high-content nuclear imaging, item: cell number; conditions = 10 µM, 12 h, mean of 2 replicates; how to read = reference: plate mean, higher = more cells; measurement = nuclei count; value = 0.833 z-score
Structure (SMILES) = CN(C)C(=O)Cn1cc(-c2nc(C3(c4ccc(-c5cnc(N)nc5)cc4)CC3)no2)cn1; tested on = pknB; test = cell-free assay, competition with immobilised ligand; conditions = 1 µM; measurement = remaining binding; value = 85%

For quick reference, copied from above (block 1):
target = CSNK1D (Homo sapiens, UniProt P48730); value = 97.8%
target = EPHA2 (Homo sapiens, UniProt P29317); value = 86.7%
